Values quoted from earlier work that unrelated publications cite.
± marks the error that the study gave.
UniProt P06536, sequence (whole entry, looked up): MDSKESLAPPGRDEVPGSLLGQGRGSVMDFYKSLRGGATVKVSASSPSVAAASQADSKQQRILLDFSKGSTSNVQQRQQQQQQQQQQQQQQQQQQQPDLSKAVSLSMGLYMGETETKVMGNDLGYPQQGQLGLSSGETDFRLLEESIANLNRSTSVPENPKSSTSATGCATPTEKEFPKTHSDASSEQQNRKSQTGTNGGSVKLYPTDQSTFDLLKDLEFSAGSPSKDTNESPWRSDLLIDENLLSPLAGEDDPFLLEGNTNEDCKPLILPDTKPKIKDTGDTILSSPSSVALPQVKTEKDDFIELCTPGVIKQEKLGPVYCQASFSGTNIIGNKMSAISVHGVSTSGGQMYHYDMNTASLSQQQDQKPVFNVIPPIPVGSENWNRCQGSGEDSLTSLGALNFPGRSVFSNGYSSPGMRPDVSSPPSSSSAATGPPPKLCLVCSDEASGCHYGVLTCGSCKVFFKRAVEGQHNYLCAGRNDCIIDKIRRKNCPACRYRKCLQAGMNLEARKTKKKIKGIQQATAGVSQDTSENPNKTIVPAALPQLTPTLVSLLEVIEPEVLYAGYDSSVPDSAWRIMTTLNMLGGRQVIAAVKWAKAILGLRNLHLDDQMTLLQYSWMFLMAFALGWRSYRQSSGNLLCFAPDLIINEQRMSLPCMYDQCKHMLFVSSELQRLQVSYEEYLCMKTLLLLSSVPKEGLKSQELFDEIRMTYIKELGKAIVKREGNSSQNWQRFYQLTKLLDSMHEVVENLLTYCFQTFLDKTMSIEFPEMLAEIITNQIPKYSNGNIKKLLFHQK
UniProt O75116, sequence (whole entry, looked up): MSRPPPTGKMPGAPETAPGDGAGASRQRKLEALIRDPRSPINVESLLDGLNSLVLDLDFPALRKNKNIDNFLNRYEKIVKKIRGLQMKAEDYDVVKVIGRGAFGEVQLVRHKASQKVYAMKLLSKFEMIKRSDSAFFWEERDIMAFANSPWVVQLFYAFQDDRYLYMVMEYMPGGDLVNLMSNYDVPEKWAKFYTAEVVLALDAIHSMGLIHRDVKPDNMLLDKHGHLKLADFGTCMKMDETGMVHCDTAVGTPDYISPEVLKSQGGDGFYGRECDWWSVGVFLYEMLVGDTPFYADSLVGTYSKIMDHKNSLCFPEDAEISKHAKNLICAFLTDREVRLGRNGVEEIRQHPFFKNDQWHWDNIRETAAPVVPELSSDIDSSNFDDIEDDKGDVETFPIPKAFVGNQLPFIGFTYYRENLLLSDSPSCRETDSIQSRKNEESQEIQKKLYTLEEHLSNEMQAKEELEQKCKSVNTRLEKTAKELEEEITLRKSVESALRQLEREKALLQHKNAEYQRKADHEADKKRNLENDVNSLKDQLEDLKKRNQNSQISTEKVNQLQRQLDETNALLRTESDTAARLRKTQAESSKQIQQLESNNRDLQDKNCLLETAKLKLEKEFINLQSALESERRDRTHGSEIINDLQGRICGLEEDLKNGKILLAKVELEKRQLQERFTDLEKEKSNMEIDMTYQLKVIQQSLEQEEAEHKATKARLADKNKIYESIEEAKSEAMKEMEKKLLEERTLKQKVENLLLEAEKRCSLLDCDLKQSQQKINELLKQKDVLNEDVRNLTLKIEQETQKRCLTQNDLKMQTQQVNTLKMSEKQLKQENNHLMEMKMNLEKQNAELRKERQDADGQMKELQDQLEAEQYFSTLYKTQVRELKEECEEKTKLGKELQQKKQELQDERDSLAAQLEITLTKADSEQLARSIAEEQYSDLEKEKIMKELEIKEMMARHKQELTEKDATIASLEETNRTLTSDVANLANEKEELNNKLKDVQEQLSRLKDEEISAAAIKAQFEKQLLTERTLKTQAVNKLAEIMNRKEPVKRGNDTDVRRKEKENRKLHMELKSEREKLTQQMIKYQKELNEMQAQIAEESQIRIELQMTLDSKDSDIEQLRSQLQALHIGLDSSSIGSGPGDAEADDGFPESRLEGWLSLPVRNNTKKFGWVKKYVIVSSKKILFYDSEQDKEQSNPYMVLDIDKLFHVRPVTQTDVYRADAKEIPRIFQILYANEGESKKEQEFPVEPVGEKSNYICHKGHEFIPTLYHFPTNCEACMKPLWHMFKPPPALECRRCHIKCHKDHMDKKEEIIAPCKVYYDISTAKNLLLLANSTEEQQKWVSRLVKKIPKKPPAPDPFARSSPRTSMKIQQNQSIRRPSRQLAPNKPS
UniProt P18089, sequence (whole entry, looked up): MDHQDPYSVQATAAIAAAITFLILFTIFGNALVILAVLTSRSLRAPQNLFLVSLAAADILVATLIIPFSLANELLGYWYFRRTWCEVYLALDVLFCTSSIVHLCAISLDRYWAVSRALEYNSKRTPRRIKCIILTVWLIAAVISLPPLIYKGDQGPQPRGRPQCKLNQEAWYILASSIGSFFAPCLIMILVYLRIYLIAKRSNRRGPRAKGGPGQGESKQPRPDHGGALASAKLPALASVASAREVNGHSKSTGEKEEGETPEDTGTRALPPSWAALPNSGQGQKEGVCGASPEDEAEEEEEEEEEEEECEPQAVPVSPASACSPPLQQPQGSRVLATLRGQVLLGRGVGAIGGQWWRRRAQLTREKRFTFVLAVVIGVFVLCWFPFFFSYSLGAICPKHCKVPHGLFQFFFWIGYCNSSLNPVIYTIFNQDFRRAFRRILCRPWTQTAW

The EC50 of `COC(=O)C1=C(C)NC(C)=C(C(=O)OC)C1c1c(-c2ccccc2OC(F)(F)F)nc2sccn12` is reported as 75 nM (negative inotropic effect; guinea pig, isolated left atrium).
The Ki of `CNC(=O)[C@@]12C[C@@H]1[C@@H](n1cnc3c(NCc4cccc(Cl)c4)nc(C#Cc4ccc(F)c(F)c4)nc31)[C@H](O)[C@@H]2O` is reported as 2900 nM (ADRA2B (Homo sapiens, UniProt P18089); radioligand binding).
With `CC(C)(C)n1nc(Cc2cccc3ccccc23)c2c(N)ncnc21` the inhibition was 46% (CSNK1D; kinase activity, inhibitor; 0.5 µM).
For `Cc1nc2ccc(-c3ccc(OC(F)(F)F)cc3)cc2c(O)c1C#N`, the IC50 was 20 nM (Plasmodium falciparum; whole cell extended time; 3D7; 72 h).
`COC(=O)C1=C(C)NC(C)=C(C(=O)OC)C1c1c(-c2cc(OC)c(OC)cc2[N+](=O)[O-])nc2sccn12`: “decrease in developed tension” 91 ± 1.4% (guinea pig left atrium; 50 µM, paced at 1 Hz; baseline: control).
`N#Cc1ccc(N[C@@H](CC2CCCCC2)C(=O)N[C@@H]2CCCc3ccccc32)c2ccccc12` has an IC50 of 730 nM (Plasmodium falciparum; whole cell extended time; 3D7; 72 h).
For `CNCc1cc(-c2ccccc2F)n(S(=O)(=O)c2cccnc2)c1`, the AUC(0-inf) was 107 ng·h/mL (human; 15 mg, single dose).
The EC50 of `CCNS(=O)(=O)c1ccc(OC)cc1C1(O)CCN(Cc2cccc(Oc3ccccc3OC)c2)CC1` is reported as 4.7 nM (human CCR8 G206W mutant (TM5); IP accumulation, agonist).
The IC50 of `O=C(Nc1ccc(OC2CCN(Cc3ccc(F)cc3)C2)c(Cl)c1)c1cccs1` (stereo not shown) is reported as 130 nM (Plasmodium falciparum; whole cell extended time; 3D7; 72 h).
For `O=C(Nc1nc2ccccc2[nH]1)c1ccccc1`, the response was 79% (TWEAK-Fn14 interaction; 10 µM, PubChem AID 1159606).
For `COC(=O)C1=C(C)NC(C)=C(C(=O)OC)C1c1c(-c2cccc(C(F)(F)F)c2)nc2sccn12`, “decrease in developed tension” read 89 ± 3.3% (guinea pig left atrium; 50 µM, paced at 1 Hz; baseline: control).
`Cc1[nH]c(C)c(-c2ccc(OCc3cc(F)cc(F)c3)nc2)c(=O)c1Cl` has an IC50 of 90 nM (Plasmodium falciparum; whole cell extended time; 3D7; 72 h).
`COC(=O)C1=C(C)NC(C)=C(C(=O)OC)C1c1c(C(F)(F)F)nc2sccn12` has an EC50 of 860 nM (decrease in atrial rate; guinea pig right atrium).
The Km of `CC(=O)Nc1ccc(O)cc1` is reported as 440 µM (CYP2D6; substrate).
The MIC of `CC1(C)S[C@@H]2[C@H](NC(=O)[C@H](N)c3ccccc3)C(=O)N2[C@H]1C(=O)O` is reported as > 16 µg/mL (Enterobacter cloacae; clinical isolate RKI-No_766/15).
With `C[C@H]1COCCN1c1nc(-c2cnc(N)cc2C(F)F)nc(N2CCOCC2)n1` the GI50 was 126 nM (AN3 CA).
`COC(=O)C1=C(C)NC(C)=C(C(=O)OC)C1c1c(-c2cccc(OC)c2)nc2sccn12` gave an EC50 of 1900 nM (negative inotropic effect; guinea pig, isolated left atrium).
`Cc1cc(=O)c(-c2ccc(Oc3ccc(Cl)cc3Cl)cc2)c(C)[nH]1` gave an IC50 of 840 nM (Plasmodium falciparum; whole cell extended time; 3D7; 72 h).
With `COc1ccccc1Oc1cccc(CN2CCC3(CC2)C(=O)NCN3CCc2ccccc2)c1` the EC50 was 7.6 nM (human CCR8 W194A mutant (TM5); IP accumulation, agonist).
`C=CCC(CCC)C(=O)O` (stereo not shown) has an EC10 of 253000 nM (HDAC; enzyme activity, inhibitor; day 4, unbound medium concentration).
`CNC(C)C1CCC(N)C(OC2C(N)CC(N)C(OC3OCC(C)(O)C(NC)C3O)C2O)O1` (stereo not shown) gave an MIC of > 8 µg/mL (Pseudomonas aeruginosa; clinical isolate RKI-No_21/12).
`Cc1cc(NC(=O)c2cccc(NC(=O)/C=C/CN(C)C)c2)ccc1Nc1nccc(-c2cccnc2)n1` has a remaining activity of 49% (ROCK2 (Homo sapiens, UniProt O75116); enzyme activity, inhibitor; 1 µM; baseline: vehicle).
`Nc1cc(C(F)(F)F)c(-c2nc(N3CCOCC3)nc(N3CCOCC3)n2)cn1` gave a GI50 of 1030 nM (44 tumour cell lines).
With `CCC(=O)O[C@]1(C(=O)SCF)[C@H](C)C[C@H]2[C@@H]3C[C@H](F)C4=CC(=O)C=C[C@]4(C)[C@@]3(F)[C@@H](O)C[C@@]21C` the receptor occupancy was 45.9% (Nr3c1 (Rattus norvegicus, UniProt P06536); rat, spleen; intravenous, 90 nmol/kg, 2.075 (unit not given)).
`CCNC(=O)[C@H]1O[C@@H](n2cnc3c(N)nc(NCCc4ccc(CCC(=O)O)cc4)nc32)[C@H](O)[C@@H]1O`: “dissociation rate constant” 0.004 ± 0.004 min⁻¹ (radioligand dissociation; second phase, with allosteric modulator, together with: [3H]ZM241385 (ZM241385)).
For `N#Cc1ccc(N2CCN(Cc3ccc(-c4ccc(-c5nc6cc(C(F)(F)F)ccc6[nH]5)cc4)cc3)CC2)nc1`, the IC50 was 960 nM (Plasmodium falciparum; whole cell extended time; 3D7; 72 h).
For `COc1ccccc1Oc1cccc(CN2CCC(O)(c3ccccc3C(=O)O)CC2)c1`, EC50 read “no effect” (human CCR8 G206A mutant (TM5); IP accumulation, agonist).
`Nc1cccc2c1C(=O)N(C1CCC(=O)NC1=O)C2=O` (stereo not shown) — result for “median progression-free survival”: 2.6 months (relapsed refractory multiple myeloma patients; dose not given, trial).
The IC50 of `CCN(CC)CCOc1ccc2cc1CN(C)C/C=C/CCOc1cccc(c1)-c1ccnc(n1)N2` is reported as 300 nM (CDK2 (Homo sapiens, UniProt P24941)).
`CC(C)n1cnc2c(Nc3cccc(Cl)c3)nc(NCCO)nc21` has an inhibition of 63% (CSNK1D; kinase activity, inhibitor; concentration not given).
For `Cc1[nH]c(C)c(-c2ccc(C(=O)c3ccc(Cl)cc3)cc2)c(=O)c1Br`, the IC50 was 810 nM (Plasmodium falciparum; whole cell extended time; 3D7; 72 h).
With `Fc1ncccc1-c1ccc2c(n1)[nH]c1ccncc12` the Kd was 9.4 nM (binding, Scatchard analysis, refers to: tau aggregates; progressive supranuclear palsy brain tissue).
`CC(C)(C)NCC(O)c1ccc(O)c(CO)c1` (stereo not shown) — result for “trough FEV1 change”: 47 mL (COPD patients; 1 mg single, 6 h, day 1; baseline: baseline, placebo-corrected).
`COc1ccccc1Oc1cccc(CN2CCC(NC(=O)C3CC(=O)Nc4ccccc43)CC2)c1` (stereo not shown) gave an EC50 of 29 nM (human CCR8 G206W mutant (TM5); IP accumulation, agonist).
`CCN(c1cc(-c2ccc(CN3CCOCC3)cc2)cc(C(=O)NCc2c(C)cc(C)[nH]c2=O)c1C)C1CCOCC1`: “overall response rate” 16% (treatment-naive epithelioid sarcoma patients; dose not given).
The EC50 of `COC(=O)C1=C(C)NC(C)=C(C(=O)OC)C1c1c(Cl)nc2scc(C)n12` is reported as 103 nM (negative inotropic effect; guinea pig, isolated left atrium).
For `Cc1c(C#N)cccc1[C@@H](C)Nc1nnc(C)c2cnc(N3CCOCC3)cc12`, the IC50 was 38.4 ± 10.7 nM (SNU-C4; 3D cell viability; 7 d).
For `COC(=O)C1=C(C)NC(C)=C(C(=O)OC)C1c1c(-c2cccc(OC(F)(F)F)c2)nc2sccn12`, the EC50 was 830 nM (negative inotropic effect; guinea pig, isolated left atrium).
For `Cc1[nH]c(C)c(C(F)(F)F)c(=O)c1-c1ccc(Oc2ccc(OC(F)(F)F)cc2)cc1`, the IC50 was 170 nM (Plasmodium falciparum; whole cell extended time; 3D7; 72 h).
With `COc1ccccc1Oc1cccc(CN2CCC(NC(=O)C(CCN3CCCC3)c3ccccc3)CC2)c1` (stereo not shown) the EC50 was 4.7 nM (human CCR8 Y172A mutant (ECL2); IP accumulation, agonist).
